Assay results pooled from the literature.
Compare with care: the assays were run in different laboratories. ± gives the spread as reported.
Cell line: NCI-H460

| SMILES | effect on | method | time | quantity | value |
| --- | --- | --- | --- | --- | --- |
| Cn1c(=O)c(/C=C/c2ccc(F)cc2)nc2ccccc21 | cell growth or viability | MTT | 72 h | IC50 | 13.8 µM |
| O=C(O)Cc1ccccc1Nc1c(Cl)cccc1Cl.c1cnc2c(c1)ccc1cccnc12 | cell viability | MTT | 48 h | IC50 | 3.52 ± 0.004 µM |
| O=c1[nH]c2ccccc2nc1/C=C/c1cccs1 | cell growth or viability | MTT | 72 h | IC50 | > 50 µM |
| CCCCCC(=O)N[C@H](C(=O)NC(CSc1c(F)c(F)c(F)c(F)c1F)C(=O)N[C@@H](CC(C)C)C(=O)[C@@]1(C)CO1)C(C)C (stereo in doubt) | cell growth or viability |  |  | IC50 | 1.13 µM |
| Cc1ccc(C2=NN(C(=O)CCC(=O)O)C(c3cn(-c4ccccc4)nc3-c3ccc(C)cc3)C2)cc1 (centres unmarked) | cell growth or viability | flow cytometry | 48 h | IC50 | 49.9 µM |
| CC(C)C[C@H](NC(=O)[C@H](CCc1ccccc1)NC(=O)CN1CCOCC1)C(=O)N[C@@H](Cc1ccccc1)C(=O)N[C@@H](CC(C)C)C(=O)[C@@]1(C)CO1 | cell growth or viability |  |  | IC50 | 0.056 µM |
| O=c1[nH]c2ccccc2nc1/C=C/c1ccccc1[N+](=O)[O-] | cell growth or viability | MTT | 72 h | IC50 | > 50 µM |
| C#C[C@@]1(O)[C@@H](CO)O[C@@H](n2cc(I)c3c(N)ncnc32)[C@@H]1O | cell growth or viability | SRB | 48 h | GI50 | 0.098 µM |
| CC(C)C[C@H](NC(=O)[C@@H]1CSCCOCCOCCC(=O)N[C@@H](C(C)C)C(=O)N1)C(=O)[C@@]1(C)CO1 | cell growth or viability |  |  | IC50 | 0.43 µM |
| COc1ccc(C2=NN(C(=O)CCC(=O)O)C(c3cn(-c4ccccc4)nc3-c3ccc(C)cc3)C2)cc1 (centres unmarked) | cell growth or viability | flow cytometry | 48 h | IC50 | 56.9 µM |
| C#C[C@@]1(O)[C@@H](CO)O[C@@H](n2cc(Cl)c3c(N)ncnc32)[C@@H]1O | cell growth or viability | SRB | 48 h | GI50 | 0.01 to 0.046 µM |

Excerpt of the above:
| SMILES | effect on | method | time | quantity | value |
| --- | --- | --- | --- | --- | --- |
| C#C[C@@]1(O)[C@@H](CO)O[C@@H](n2cc(Cl)c3c(N)ncnc32)[C@@H]1O | cell growth or viability | SRB | 48 h | GI50 | 0.01 to 0.046 µM |
| CC(C)C[C@H](NC(=O)[C@H](CCc1ccccc1)NC(=O)CN1CCOCC1)C(=O)N[C@@H](Cc1ccccc1)C(=O)N[C@@H](CC(C)C)C(=O)[C@@]1(C)CO1 | cell growth or viability |  |  | IC50 | 0.056 µM |
